{"data": "Results of several laboratories", "note": "A part holds a random share of what one study measured."}
{"data": "Study 1", "target": "PABPC1L2, full length, GST fusion (mouse, UniProt A0ABA7IW68)", "method": "RNAcompete", "form": "RNA", "matrix": "in vitro", "concentration": "20 nM", "notes": "7-mer, probes averaged, single round", "relative to": "mean of 7-mers", "direction": "higher = stronger binding", "Construct (chain)": "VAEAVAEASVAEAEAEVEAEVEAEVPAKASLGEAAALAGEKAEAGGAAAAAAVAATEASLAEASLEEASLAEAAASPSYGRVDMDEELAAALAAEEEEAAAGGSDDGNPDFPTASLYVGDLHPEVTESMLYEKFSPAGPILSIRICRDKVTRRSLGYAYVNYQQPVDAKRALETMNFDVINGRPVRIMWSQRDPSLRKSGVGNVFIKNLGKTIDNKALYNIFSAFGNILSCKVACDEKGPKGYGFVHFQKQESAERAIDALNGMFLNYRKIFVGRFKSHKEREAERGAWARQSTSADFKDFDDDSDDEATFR"}
{"Sequence": "CCUUUCG", "7-mer Z-score": -0.45}
{"Sequence": "GCCUUCU", "7-mer Z-score": -0.45}
{"Sequence": "CGGUAGU", "7-mer Z-score": -0.148}
{"Sequence": "GGUGUCA", "7-mer Z-score": -0.0681}
{"Sequence": "ACUCCCC", "7-mer Z-score": -0.306}
{"Sequence": "AAGACGU", "7-mer Z-score": 0.358}
{"Sequence": "GUAGGAC", "7-mer Z-score": 0.184}
{"Sequence": "GGGUUAA", "7-mer Z-score": 0.35}
{"Sequence": "AGCUUAG", "7-mer Z-score": -0.128}
{"Sequence": "CUGCAGG", "7-mer Z-score": -0.0518}
{"Sequence": "UUUGCCA", "7-mer Z-score": -0.293}
{"Sequence": "GUAGGGU", "7-mer Z-score": 0.0587}
{"Sequence": "UAAAAAU", "7-mer Z-score": 10.8}
{"Sequence": "CCUGAGA", "7-mer Z-score": -0.0772}
{"Sequence": "UGCGACA", "7-mer Z-score": 0.000733}
{"Sequence": "UACCGGU", "7-mer Z-score": -0.304}
{"Sequence": "AUGCGCG", "7-mer Z-score": -0.0264}
{"Sequence": "CGAUCGC", "7-mer Z-score": -0.242}
{"Sequence": "AACGGGG", "7-mer Z-score": 0.448}
{"Sequence": "AUGCAGC", "7-mer Z-score": -0.0971}
{"Sequence": "UAUUGUU", "7-mer Z-score": -0.327}
{"data": "Study 2", "target": "Sal-like protein 4, full length isoform A (SALL4, Homo sapiens, UniProt Q9UJQ4, residues 1-1053)", "method": "universal PBM", "form": "double-stranded DNA, one strand shown", "matrix": "in vitro", "concentration": "600 nM", "notes": "8-mer, flanks averaged, mean of replicates", "direction": "higher = stronger binding", "sequence of UniProt Q9UJQ4 (whole entry, looked up)": "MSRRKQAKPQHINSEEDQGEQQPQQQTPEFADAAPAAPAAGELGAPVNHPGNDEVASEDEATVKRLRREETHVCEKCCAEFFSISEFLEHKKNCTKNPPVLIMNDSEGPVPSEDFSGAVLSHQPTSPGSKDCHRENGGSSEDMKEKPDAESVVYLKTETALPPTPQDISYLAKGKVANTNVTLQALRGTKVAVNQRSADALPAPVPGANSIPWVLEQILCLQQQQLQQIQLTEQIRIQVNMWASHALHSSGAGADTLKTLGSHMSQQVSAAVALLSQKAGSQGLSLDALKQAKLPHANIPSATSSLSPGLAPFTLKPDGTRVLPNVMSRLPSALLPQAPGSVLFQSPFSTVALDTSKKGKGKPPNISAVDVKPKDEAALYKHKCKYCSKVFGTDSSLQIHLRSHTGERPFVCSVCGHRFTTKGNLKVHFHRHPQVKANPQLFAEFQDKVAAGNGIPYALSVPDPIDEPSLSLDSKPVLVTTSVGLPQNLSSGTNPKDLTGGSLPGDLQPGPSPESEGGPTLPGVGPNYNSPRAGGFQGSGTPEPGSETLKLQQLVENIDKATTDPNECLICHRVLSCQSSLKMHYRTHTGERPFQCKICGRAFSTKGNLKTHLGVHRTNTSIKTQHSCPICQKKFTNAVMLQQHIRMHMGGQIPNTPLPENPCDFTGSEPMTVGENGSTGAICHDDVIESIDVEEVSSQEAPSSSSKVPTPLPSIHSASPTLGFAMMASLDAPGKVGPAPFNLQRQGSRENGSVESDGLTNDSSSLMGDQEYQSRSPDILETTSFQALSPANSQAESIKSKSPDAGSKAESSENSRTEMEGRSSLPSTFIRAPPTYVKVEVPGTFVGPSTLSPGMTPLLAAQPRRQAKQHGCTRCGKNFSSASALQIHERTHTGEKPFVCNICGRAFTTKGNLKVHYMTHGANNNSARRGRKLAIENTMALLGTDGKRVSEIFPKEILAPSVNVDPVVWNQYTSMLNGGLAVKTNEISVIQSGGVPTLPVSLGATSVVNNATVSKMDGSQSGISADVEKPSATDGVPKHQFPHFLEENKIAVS"}
{"Sequence": "GGGCTCGA", "E-score": -0.193}
{"Sequence": "CATGATTC", "E-score": -0.0224}
{"Sequence": "AGATGCAT", "E-score": -0.0124}
{"Sequence": "AAAAGCCT", "E-score": 0.0514}
{"Sequence": "CACAGTAA", "E-score": 0.114}
{"Sequence": "ACCGTTCC", "E-score": -0.105}
{"Sequence": "GGTAGAGA", "E-score": -0.091}
{"Sequence": "ACCGTACG", "E-score": -0.21}
{"Sequence": "CAATCGAC", "E-score": -0.0395}
{"Sequence": "CAGATAGC", "E-score": -0.175}
{"Sequence": "AAAGCAGC", "E-score": -0.138}
{"Sequence": "CCCTCCAC", "E-score": -0.134}
{"Sequence": "CTGTAGAC", "E-score": -0.0351}
{"Sequence": "CTGAAATA", "E-score": 0.322}
{"Sequence": "AGCTAGAT", "E-score": 0.0813}
{"Sequence": "CCGTCGCC", "E-score": -0.332}
{"Sequence": "CGGGGCTA", "E-score": -0.312}
{"Sequence": "CGGCATGC", "E-score": -0.234}
{"Sequence": "ACTCTTCA", "E-score": 0.0923}
{"data": "Study 3", "target": "Histone acetyltransferase KAT6A, winged helix 1, GST fusion (KAT6A, Homo sapiens, UniProt Q92794, residues 1-85)", "method": "protein binding microarray", "form": "double-stranded DNA, one strand shown", "matrix": "in vitro", "concentration": "not given", "notes": "8-mer, flanks averaged, mean of 2 arrays, mostly near background", "relative to": "not given", "direction": "higher = stronger binding", "Construct (chain)": "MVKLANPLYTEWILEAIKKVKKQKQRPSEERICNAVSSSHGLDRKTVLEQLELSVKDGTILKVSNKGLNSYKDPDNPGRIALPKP"}
{"Sequence": "CTTGCTTC", "E-score": -0.244}
{"Sequence": "ATCCAAGG", "E-score": -0.117}
{"Sequence": "ACACAGAT", "E-score": -0.197}
{"Sequence": "ATATCCGG", "E-score": 0.0691}
{"Sequence": "AAGAAACT", "E-score": -0.187}
{"Sequence": "ATACAGAA", "E-score": -0.142}
{"Sequence": "CGCGACTC", "E-score": 0.177}
{"Sequence": "CTTTCTGA", "E-score": -0.186}
{"Sequence": "AAAGCGTG", "E-score": 0.168}
{"Sequence": "CTTCAGCC", "E-score": -0.243}
{"Sequence": "CTCCGGGA", "E-score": 0.132}
{"Sequence": "CAGCCCCG", "E-score": 0.243}
{"Sequence": "TACCTTGA", "E-score": -0.0607}
{"Sequence": "GCGTGTGA", "E-score": 0.148}
{"data": "Single results of other studies"}
{"Molecule": "EDLLKELQKQLEE", "tested on": "Saccharomyces cerevisiae", "assay": "binding, competitive growth deep sequencing", "system": "peptide, cyclin E1-Cln2 fusion strain", "conditions": "concentration not given, Cln2 score subtracted", "scale": "direction not given", "endpoint": "growth enrichment score", "result": 0.0265}
{"Molecule": "PhoQ, residues 284 288 289 292 302 303 QWGLFV", "tested on": "PhoP, residues 12 14 15 18 19 SMASL (Escherichia coli, UniProt P23836)", "assay": "Sort-seq, measured: YFP reporter", "system": "E. coli", "conditions": "PhoQ-PhoP variant library, with: 10 µM Mg2+", "scale": "relative to: high Mg2+ state, higher = stronger signaling", "endpoint": "fold induction", "result": 2.67}
{"Molecule": "FVPQRKLEVSTED", "tested on": "Saccharomyces cerevisiae", "assay": "binding, competitive growth deep sequencing", "system": "peptide, cyclin D3-Cln2 fusion strain", "conditions": "concentration not given, RxL motif peptides", "scale": "direction not given", "endpoint": "growth enrichment score", "result": 0.175}
